# Results from different studies.
# Compare with care: the assays were run in different laboratories. “And” joins repeats or separate records; there may be more than shown. ± gives the spread as reported.
# UCHL1: Ubiquitin carboxyl-terminal hydrolase isozyme L1 (UCHL1, Homo sapiens, UniProt P09936)
# UniProt Q62351, sequence (whole entry, looked up): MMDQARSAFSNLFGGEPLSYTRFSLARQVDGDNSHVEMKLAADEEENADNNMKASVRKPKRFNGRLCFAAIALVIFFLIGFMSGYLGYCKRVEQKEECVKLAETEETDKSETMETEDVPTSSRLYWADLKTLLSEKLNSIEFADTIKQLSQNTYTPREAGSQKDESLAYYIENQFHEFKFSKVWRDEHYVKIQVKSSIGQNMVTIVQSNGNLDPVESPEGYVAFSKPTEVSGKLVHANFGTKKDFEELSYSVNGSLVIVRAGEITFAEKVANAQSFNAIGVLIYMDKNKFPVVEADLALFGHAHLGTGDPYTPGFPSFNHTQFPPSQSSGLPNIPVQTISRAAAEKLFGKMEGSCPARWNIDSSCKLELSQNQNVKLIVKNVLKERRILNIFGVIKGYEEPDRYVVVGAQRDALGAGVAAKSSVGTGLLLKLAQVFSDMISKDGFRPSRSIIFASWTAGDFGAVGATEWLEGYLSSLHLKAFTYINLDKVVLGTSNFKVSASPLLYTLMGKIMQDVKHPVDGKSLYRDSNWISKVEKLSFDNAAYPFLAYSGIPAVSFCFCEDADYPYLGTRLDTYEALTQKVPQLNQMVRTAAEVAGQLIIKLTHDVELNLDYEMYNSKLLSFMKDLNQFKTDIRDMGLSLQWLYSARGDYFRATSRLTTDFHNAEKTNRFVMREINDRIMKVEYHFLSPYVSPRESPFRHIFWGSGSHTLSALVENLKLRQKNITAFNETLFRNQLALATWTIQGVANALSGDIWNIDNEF
# UniProt P09936, sequence (whole entry, looked up): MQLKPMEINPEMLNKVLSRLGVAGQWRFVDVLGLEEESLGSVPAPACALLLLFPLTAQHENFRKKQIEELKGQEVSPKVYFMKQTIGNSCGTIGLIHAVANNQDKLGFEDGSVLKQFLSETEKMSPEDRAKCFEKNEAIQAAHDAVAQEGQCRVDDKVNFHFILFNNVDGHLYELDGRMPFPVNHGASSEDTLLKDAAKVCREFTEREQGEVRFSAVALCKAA
# UniProt P09690, sequence (whole entry, looked up): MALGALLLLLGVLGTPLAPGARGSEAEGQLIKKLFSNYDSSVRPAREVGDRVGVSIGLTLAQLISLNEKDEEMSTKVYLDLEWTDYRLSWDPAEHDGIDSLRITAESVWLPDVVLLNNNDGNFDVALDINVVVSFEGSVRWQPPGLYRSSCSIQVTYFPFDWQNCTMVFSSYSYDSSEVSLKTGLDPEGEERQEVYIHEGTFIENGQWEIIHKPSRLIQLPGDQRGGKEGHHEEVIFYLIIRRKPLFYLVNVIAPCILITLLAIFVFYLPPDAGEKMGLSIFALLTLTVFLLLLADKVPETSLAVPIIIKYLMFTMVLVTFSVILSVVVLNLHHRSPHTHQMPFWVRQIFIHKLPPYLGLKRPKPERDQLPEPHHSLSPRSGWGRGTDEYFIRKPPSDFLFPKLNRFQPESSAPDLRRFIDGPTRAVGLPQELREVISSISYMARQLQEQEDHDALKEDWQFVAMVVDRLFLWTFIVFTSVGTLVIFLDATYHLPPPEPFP
# UniProt O75884, sequence (whole entry, looked up): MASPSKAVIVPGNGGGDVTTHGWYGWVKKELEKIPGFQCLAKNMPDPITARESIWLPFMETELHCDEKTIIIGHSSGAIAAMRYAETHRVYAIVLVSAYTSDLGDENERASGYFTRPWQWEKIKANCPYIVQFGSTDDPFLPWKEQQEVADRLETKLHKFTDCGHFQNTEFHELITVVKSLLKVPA
# UniProt P00942, sequence (whole entry, unmodified, looked up): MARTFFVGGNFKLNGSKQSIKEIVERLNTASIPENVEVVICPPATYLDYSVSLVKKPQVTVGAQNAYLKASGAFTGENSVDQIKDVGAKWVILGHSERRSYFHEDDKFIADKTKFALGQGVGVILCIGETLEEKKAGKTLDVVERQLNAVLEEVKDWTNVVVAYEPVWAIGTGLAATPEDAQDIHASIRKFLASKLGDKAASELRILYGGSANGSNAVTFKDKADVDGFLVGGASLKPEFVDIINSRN
# UniProt P41240, sequence (whole entry, looked up): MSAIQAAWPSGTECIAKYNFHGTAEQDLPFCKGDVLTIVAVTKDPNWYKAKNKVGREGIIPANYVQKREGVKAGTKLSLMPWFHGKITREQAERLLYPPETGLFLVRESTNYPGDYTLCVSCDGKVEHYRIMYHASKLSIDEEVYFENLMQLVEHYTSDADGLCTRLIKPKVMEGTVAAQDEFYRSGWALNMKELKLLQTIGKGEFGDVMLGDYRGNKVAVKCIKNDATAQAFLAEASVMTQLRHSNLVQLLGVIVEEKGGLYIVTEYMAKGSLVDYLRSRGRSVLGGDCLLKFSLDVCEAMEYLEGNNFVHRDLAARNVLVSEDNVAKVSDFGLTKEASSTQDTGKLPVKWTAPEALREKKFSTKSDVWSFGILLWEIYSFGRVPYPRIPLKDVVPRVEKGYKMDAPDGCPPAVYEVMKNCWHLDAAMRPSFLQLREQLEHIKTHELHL
# UniProt Q13705, sequence (whole entry, looked up): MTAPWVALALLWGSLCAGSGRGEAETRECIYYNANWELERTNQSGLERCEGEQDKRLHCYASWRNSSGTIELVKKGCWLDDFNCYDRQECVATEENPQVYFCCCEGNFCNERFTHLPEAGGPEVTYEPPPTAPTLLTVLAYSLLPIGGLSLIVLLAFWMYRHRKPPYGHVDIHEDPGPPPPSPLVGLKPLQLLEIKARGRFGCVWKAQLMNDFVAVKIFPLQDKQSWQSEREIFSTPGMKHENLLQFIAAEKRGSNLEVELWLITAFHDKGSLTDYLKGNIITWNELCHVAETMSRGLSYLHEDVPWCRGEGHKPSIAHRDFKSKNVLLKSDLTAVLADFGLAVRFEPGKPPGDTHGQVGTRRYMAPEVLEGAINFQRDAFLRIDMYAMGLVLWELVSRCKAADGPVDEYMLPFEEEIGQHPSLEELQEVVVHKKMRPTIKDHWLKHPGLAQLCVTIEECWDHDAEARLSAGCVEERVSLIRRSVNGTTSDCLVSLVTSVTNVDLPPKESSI
# UniProt P21553, sequence (whole entry, looked up): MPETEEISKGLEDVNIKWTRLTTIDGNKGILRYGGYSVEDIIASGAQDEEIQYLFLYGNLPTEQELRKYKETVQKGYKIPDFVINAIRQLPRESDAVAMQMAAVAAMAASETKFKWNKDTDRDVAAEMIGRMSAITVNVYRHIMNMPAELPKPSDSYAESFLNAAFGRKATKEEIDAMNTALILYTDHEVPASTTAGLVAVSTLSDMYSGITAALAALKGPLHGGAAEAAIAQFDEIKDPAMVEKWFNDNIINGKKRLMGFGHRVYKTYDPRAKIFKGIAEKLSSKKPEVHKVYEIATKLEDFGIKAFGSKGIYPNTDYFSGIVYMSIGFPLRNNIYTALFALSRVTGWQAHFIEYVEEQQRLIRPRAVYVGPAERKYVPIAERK
# UniProt P02716, sequence (whole entry, looked up): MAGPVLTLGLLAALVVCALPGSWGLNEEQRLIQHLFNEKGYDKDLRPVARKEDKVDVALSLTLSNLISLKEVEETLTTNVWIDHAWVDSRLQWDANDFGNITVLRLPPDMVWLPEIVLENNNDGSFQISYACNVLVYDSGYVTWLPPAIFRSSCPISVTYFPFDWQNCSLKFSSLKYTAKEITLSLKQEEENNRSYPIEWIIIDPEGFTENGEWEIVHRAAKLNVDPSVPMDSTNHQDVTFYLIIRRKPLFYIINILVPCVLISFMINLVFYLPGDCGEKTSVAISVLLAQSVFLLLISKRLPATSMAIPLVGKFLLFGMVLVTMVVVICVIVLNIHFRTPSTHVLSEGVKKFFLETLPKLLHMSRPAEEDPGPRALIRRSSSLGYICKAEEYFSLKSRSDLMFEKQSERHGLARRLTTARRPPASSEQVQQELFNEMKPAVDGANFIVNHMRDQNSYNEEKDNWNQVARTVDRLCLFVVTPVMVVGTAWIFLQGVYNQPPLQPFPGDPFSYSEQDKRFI
# UniProt Q52WX2, sequence (whole entry, looked up): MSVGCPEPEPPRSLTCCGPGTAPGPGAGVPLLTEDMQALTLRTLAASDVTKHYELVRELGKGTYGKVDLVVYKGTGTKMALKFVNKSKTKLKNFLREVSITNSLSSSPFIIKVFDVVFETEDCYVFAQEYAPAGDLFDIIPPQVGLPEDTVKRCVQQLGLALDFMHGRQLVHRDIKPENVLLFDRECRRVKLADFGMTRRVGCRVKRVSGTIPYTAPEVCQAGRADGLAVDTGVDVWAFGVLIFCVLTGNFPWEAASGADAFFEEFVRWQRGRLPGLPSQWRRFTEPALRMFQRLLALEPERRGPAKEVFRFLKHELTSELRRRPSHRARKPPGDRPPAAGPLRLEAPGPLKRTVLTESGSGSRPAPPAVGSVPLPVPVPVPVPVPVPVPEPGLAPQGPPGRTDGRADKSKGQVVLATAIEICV
# UniProt Q9P289, sequence (whole entry, looked up): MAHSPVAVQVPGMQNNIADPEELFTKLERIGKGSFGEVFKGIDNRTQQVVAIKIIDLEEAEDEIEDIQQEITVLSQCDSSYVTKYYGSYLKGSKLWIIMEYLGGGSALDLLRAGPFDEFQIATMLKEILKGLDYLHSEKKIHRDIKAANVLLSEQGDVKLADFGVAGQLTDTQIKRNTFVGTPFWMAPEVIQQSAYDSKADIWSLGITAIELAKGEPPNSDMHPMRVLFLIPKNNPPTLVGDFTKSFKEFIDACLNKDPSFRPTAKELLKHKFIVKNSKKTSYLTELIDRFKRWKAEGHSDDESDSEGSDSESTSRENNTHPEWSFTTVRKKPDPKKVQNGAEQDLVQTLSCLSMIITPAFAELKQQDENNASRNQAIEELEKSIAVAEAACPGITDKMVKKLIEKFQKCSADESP
# UniProt Q06520, sequence (whole entry, looked up): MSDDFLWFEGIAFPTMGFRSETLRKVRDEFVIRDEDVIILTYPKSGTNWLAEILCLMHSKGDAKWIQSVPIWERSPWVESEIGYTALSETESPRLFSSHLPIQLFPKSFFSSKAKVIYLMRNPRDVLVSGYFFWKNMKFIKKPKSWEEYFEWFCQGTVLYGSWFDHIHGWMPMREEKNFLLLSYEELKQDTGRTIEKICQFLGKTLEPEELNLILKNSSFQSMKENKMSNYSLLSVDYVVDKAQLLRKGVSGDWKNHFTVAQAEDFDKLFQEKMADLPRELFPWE
Structure (SMILES),target,test,system,conditions,scale,measurement,value
Nc1nc(COC(=O)[C@@H]2CS[C@H]3CS[C@H](CS)N32)cs1,"sfhI (Serratia fonticola, UniProt Q9RMI1)",activity class,,concentration not given,,activity,inactive
COc1ncccc1-c1cnn2ccc(N3CCN(C(=O)OC(C)C)CC3)nc12,"Ribosomal protein S6 kinase alpha-2, N-terminal kinase domain (RPS6KA2, Homo sapiens, UniProt Q15349)",KINOMEscan binding,,1 µM,baseline: untreated control,remaining binding,95%
COc1cc(N)c(Cl)cc1C(=O)NC1CN2CCC1CC2 (centres unmarked),"TAAR5 (Homo sapiens, UniProt O14804)","β-arrestin recruitment, TANGO luminescence",,concentration not given,baseline: basal luminescence,log2 fold change,0.354
O=C(O)COP(=O)(O)O,"TPI1 (Saccharomyces cerevisiae, UniProt P00942, S211G)","enzyme activity, competitive inhibitor, GPDH/NADH-coupled",,"pH 8.3, 25 °C, ionic strength 0.1 NaCl, with: glyceraldehyde 3-phosphate substrate",baseline: mutant over wild type,Ki ratio,2.6
COc1ccc(N2C(=O)N(c3c(C)cccc3Cl)Cc3cnc(Nc4ccc(C5CCN(C)CC5)cc4OC)nc32)nc1,"RPS6KB2 (Homo sapiens, UniProt Q9UBS0)","kinase activity, inhibitor",,"0.5 µM, kinase P70S6K2",,inhibition,-5%
O=C1NC(=O)[C@](CNC(=O)c2cnn(-c3ccccc3)n2)(C2CC2)N1,"Prothrombin (F2, Homo sapiens, UniProt P00734)",inhibitor,,concentration not given,,activity,inactive
C[C@H]1CN(c2n[nH]c3nc(N[C@H]4CC[C@H](NS(=O)(=O)CCC(F)(F)F)CC4)ncc23)CCO1,"Nuclear cap-binding protein subunit 1 (Homo sapiens, UniProt Q09161)","Kinobeads competition, item: NCBP1",,"0.032 µM, unit not given",baseline: vehicle,remaining binding,1.09
Cn1ccnc1C(=O)CCl,UCHL1,"covalent, intact protein LC-MS",,12.5 µM,,labelling,2.47%
O=C(Nc1cccnn1)N1CCC(=Cc2cccc(Oc3ccc(C(F)(F)F)cn3)c2)CC1,"Talin-2 (Rattus norvegicus, UniProt A0A8I5Y6H9)",competitive ABPP with azido-FP probe,rat brain soluble fraction,"0.01 µM, unit not given",baseline: DMSO,probe labelling,-4.4
N#C[C@@H]1CC(F)(F)CN1C(=O)CNC(=O)c1ccnc2ccc(OCCCN3CCN(C(=O)CN4CCN(CC(=O)[O-])CCN(CC(=O)[O-])CC4)CC3)cc12.[18F-].[Al+3],"Fibroblast activation protein alpha (Rattus norvegicus, UniProt A0A9K3Y732)",PET,"model, rat, HFpEF, HFD/L-NAME","intravenous, 0.05 MBq/g, 30 min, seventh week",,myocardial SUVmax,1.98 ± 0.25
O=C(c1ccc(Cl)cc1)N1CCN2C(=O)N(OC(=O)N3CCOc4ccccc43)C(=O)C2C1 (centres unmarked),"Serine hydrolase RBBP9 (Homo sapiens, UniProt O75884)",MS-based ABPP,SW-620 conditioned medium,"10 µM, 1 h, 37 °C, median protein ratio",baseline: compound over DMSO,probe labelling ratio,1.48
Cc1nn(C)cc1-c1nc2c(N3CCN(Cc4ccc(Cl)cc4)CC3)c(Cl)cnc2[nH]1,"ACVR2B (Homo sapiens, UniProt Q13705)",KINOMEscan,,1 µM,baseline: DMSO control,remaining binding,72%
CC[C@@H](C)[C@@H](NC(=O)[C@@H](Cc1ccc(O)cc1)NC(=O)[C@H]1CCCN1C(=O)[C@@H](CCCNC(=N)N)NC(=O)[C@H](N)Cc1c[nH]cn1)C(=O)N[C@H](C)C(=O)N[C@H](Cc1c[nH]cn1)C(=O)N[C@H](CCCNC(=N)N)C(=O)N[C@H](CCCCNC(=O)c1cccc(S(=O)(=O)F)c1)C(=O)N[C@H](Cc1ccc(O)cc1)C(=O)N[C@H](CO)C(=O)N[C@H](Cc1ccccc1)C(N)=O,"Transferrin receptor protein 1 (Tfrc, Mus musculus, UniProt Q62351)",flow cytometry,B16,"2 h, unit not given",baseline: 0 h,surface expression,0.901 and 0.729
Oc1ccc(/C=C/c2cc(O)cc(O)c2)cc1,"O-methyltransferase (Sorghum bicolor, UniProt A0A1B6PFV1, W279A)",isothermal titration calorimetry,,with: SFG,,∆G,-6.22 kcal/mol
O=C(CCl)c1cc(Cl)ccc1Cl,UCHL1,"covalent, intact protein LC-MS",,12.5 µM,,labelling,13.4%
NCCc1c[nH]c2ccc(O)cc12,AANAT1 Rangifer tarandus,"substrate, DTNB colorimetric",,with: acetyl-CoA,,Km,160 ± 30 µM
COc1ccc(F)cc1C(=O)NCc1ccc(-c2nn([C@@H](C)C(F)(F)F)c(N)c2C(N)=O)cc1,"CSK (Homo sapiens, UniProt P41240)","target engagement, NanoBRET",HEK293,,baseline: CSK over BTK,selectivity ratio,> 7600
CC12CCC(CC1)C(C)(C)O2,"1,8-cineole 2-endo-monooxygenase (cinA, Citrobacter braakii, UniProt Q8VQF6, N242A)",ITC,,"25 °C, N242A protein",,TΔS,7.89 ± 1.21 kcal/mol
CC[N+]1(CC)CCN(c2cccc(OC)c2)CC1,"Nicotinic acetylcholine receptor alpha1/beta1/epsilon/delta (Mus musculus, UniProt P02716+P04756+P09690+P20782)","ion current, inhibitor, two-electrode voltage clamp",Xenopus oocytes,"30 µM, after co-application, unit not given, with: ACh 30 µM",baseline: ACh alone,ACh response,0.4 ± 0.158
COc1cc(Nc2ncc(F)c(Nc3ccc4c(n3)NC(=O)C(C)(C)O4)n2)cc(OC)c1OC,"STK26 (Homo sapiens, UniProt Q9P289)","binding, KINOMEscan",,"10 µM, MST4 kinase",,inhibition,51%
COc1cc(-c2[o+]c3cc(O)cc(O)c3cc2O[C@@H]2O[C@H](CO)[C@@H](O)[C@H](O)[C@H]2O)cc(OC)c1O,"Albumin (ALB, Homo sapiens, UniProt P02768)","binding, visible absorption",,"50 µM, pH 7, with: HSA up to 200 µM",baseline: without HSA,bathochromic shift,57 nm
CN(C(=O)n1cnc(-c2ccc[n+]([O-])c2)c1)C1CCCCC1,"CAMK2D (Homo sapiens, UniProt Q13557)",enzyme activity,,"10 µM, with: autocamtide-2",,inhibition,13%
CN1CCN(c2cc(-c3ccncc3)c(-c3ccc4ccccc4c3)nn2)CC1,"Alpha-1D adrenergic receptor, Δ2-79 (ADRA1D, Homo sapiens, UniProt P25100)","antagonist, FLIPR",,10 µM,,inhibition,17.7%
O=c1[nH]c2ccccc2n1C1CCN(Cc2ccc(-c3[nH]c4cc5ncnc5cc4nc3-c3ccccc3)cc2)CC1,"TRPM8 (Homo sapiens, UniProt Q7Z2W7)",antagonist,HEK293,5 µM,,remaining activity,83.9 ± 8.93%
CC(=O)SCCNC(=O)CCNC(=O)[C@H](O)C(C)(C)COP(=O)(O)OP(=O)(O)OC[C@H]1O[C@@H](n2cnc3c(N)ncnc32)[C@H](O)[C@@H]1OP(=O)(O)O,"gltA (Thermoplasma acidophilum, UniProt P21553)","steady-state turnover, substrate",,"saturating, with: oxaloacetate saturating",,kcat,6.8 s⁻¹
[2H]c1c([2H])c([C@]2([2H])CCCN2C(=O)C(C)(C)Oc2ccc3cn[nH]c3c2)c([2H])c([2H])c1C([2H])([2H])[2H],"PRKACA (Homo sapiens, UniProt P17612)",KINOMEscan,,1 µM,baseline: DMSO control,remaining binding,95%
Nc1ncc(-c2nc(N3CCOCC3)nc(N3CCOCC3)n2)c(C(F)F)n1,"SBK1 (Homo sapiens, UniProt Q52WX2)",KINOMEscan,,10 µM,,remaining binding,60%
O=C(Nc1cnccc1Cl)N1CCN(Cc2ccc3c(c2)OC(F)(F)O3)CC1,"CAMK4 (Homo sapiens, UniProt Q16566)","enzyme activity, inhibitor",,"10 µM, with: autocamtide-2",,inhibition,3%
Oc1c(Cl)cc(-c2ccccc2)cc1Cl,"SULT2A1 (Homo sapiens, UniProt Q06520)",substrate,,"pH 7.0, 37 °C, with: PAPS 200 µM",,Vmax,44.3 ± 3.9 nmol/min/mg
